Measured values gathered from unrelated publications.
Lines come from different studies, so protocols differ. Values joined by “and” are separate records of one study, mostly repeats; a detail may differ. ± gives the spread as reported. Converted amounts (≈) assume the structure as drawn.

SMILES = NC(=O)c1nc(F)c[nH]c1=O; assay = UV-Vis spectrophotometry; system = supercritical CO2; setting = 120 min, 338 K, 27 MPa, 783.29 kg/m^3; quantity = solubility; result = 2120 µg/mL (≈ 13.5 mM)
SMILES = CN[C@@](C)(C[18F])C(=O)O; system = SCID mouse U87 xenograft, brain; setting = 60 min, post injection; quantity = tissue uptake; result = 0.5 ± 0.1 %ID/g
SMILES = CC(C)C[C@H](NC(=O)[C@H](CC(=O)O)NC(=O)CNC(=O)[C@H](CCCNC(=N)N)NC(=O)[C@H](CC(C)C)NC(=O)[C@H](CC(N)=O)NC(=O)[C@@H]1CCCN1C(=O)[C@@H](NC(=O)[C@H](C)NC(=O)[C@H](CC(N)=O)NC(=O)CCOCCOCCOCCOCCOCCOCCOCCOCCOCCOCCOCCOCCOCCOCCOCCOCCOCCOCCOCCOCCOCCOCCOCCOCCOCCOCCOCCOCCNC(=O)CN1CCN(CC(=O)O)CCN(CC(=O)O)CC1)C(C)C)C(=O)N[C@@H](CCC(N)=O)C(=O)N[C@H](C(=O)N[C@@H](CC(C)C)C(=O)N[C@@H](C)C(=O)N[C@@H](CCC(N)=O)C(=O)N[C@@H](CCCNC(=N)N)C(=O)N[C@H](C(=O)N[C@@H](C)C(=O)N[C@@H](CCCNC(=N)N)C(=O)N[C@H](C(=O)NCCOCCOCCOCCOCCOCCOCCOCCOCCOCCOCCOCCOCCOCCOCCOCCOCCOCCOCCOCCOCCOCCOCCOCCOCCOCCOCCOCCOCCC(N)=O)[C@@H](C)O)C(C)C)C(C)C [fluorine-18 labelled]; system = female athymic nude mice, DX3puroβ6/DX3puro xenografts, bone; setting = intravenous, 0.175 nmol; quantity = tissue uptake; result = ≤ 0.9 %ID/g
SMILES = CSCC[C@H](NC(C)=O)C(=O)N[C@H]1CSSC[C@@H](C(=O)NCC(=O)N[C@@H](CO)C(=O)NCC(=O)N[C@@H](CO)C(=O)N[C@@H](CC(=O)O)C(=O)N[C@@H](Cc2ccc(O)cc2)C(=O)N[C@@H](CCCCN)C(=O)N[C@@H](CC(=O)O)C(=O)N[C@@H](CC(=O)O)C(=O)N[C@@H](CC(=O)O)C(=O)N[C@@H](CC(=O)O)C(=O)N[C@@H](CCCCN)C(N)=O)NC(=O)[C@H](Cc2ccccc2)NC(=O)[C@@H]2CCCN2C(=O)[C@H](Cc2c[nH]c3ccccc23)NC(=O)[C@H](CC(C)C)NC(=O)[C@H](CCSC)NC(=O)[C@H](Cc2c[nH]cn2)NC(=O)[C@H](Cc2ccccc2)NC(=O)[C@H](Cc2c[nH]cn2)NC(=O)[C@H]([C@@H](C)O)NC(=O)[C@H](Cc2ccccc2)NC1=O; system = pooled human plasma; setting = 1 µM, pH 7.4, 37 °C, 80% plasma; quantity = t1/2; result = 3.5 h
SMILES = O=c1[nH]c(Cc2ccccn2)nc2c1cnn2C1CCOCC1; system = male human, plasma; setting = oral, 2 mg, single dose; quantity = AUC(0-inf); result = 0.0209 µM·h
SMILES = CC(=O)O[C@H]1C(=O)[C@@]2(C)[C@H]([C@H](OC(=O)c3ccccc3)[C@]3(O)C[C@H](OC(=O)[C@H](O)[C@@H](NC(=O)c4ccccc4)c4ccccc4)C(C)=C1C3(C)C)[C@]1(OC(C)=O)CO[C@@H]1C[C@@H]2O; system = BALB/c mouse, serum; setting = intraperitoneal, 10 mg/kg every three days, 60 days; quantity = creatinine; result = 145 µmol/L and 196 µmol/L and 153 µmol/L
SMILES = [123I]c1cncc(OC[C@@H]2CCN2)c1; assay = SPECT; system = human, head of caudate nucleus; setting = intravenous bolus, 9.1 mCi; how to read = baseline: tissue over plasma; quantity = tissue/plasma ratio; result = 14.2
SMILES = CC(=O)C[C@@H](c1ccccc1)c1c(O)c2ccc(O)cc2oc1=O; assay = substrate, measured: 7-hydroxywarfarin 7-glucuronide; system = pooled human liver microsomes; quantity = Km; result = 929 µM
SMILES = CC[C@H](C)[C@H](NC(=O)[C@H](CC(C)C)NC(=O)[C@H](Cc1c[nH]c2ccccc12)NC(=O)[C@H](CCC(N)=O)NC(=O)[C@@H](NC(=O)[C@H](Cc1ccccc1)NC(=O)[C@H](C)NC(=O)[C@H](CCCCNC(=O)COCCOCCNC(=O)COCCOCCNC(=O)CC[C@H](NC(=O)CCCCCCCCCCCCCCCCCCC(=O)O)C(=O)O)NC(=O)[C@H](CCC(N)=O)NC(=O)[C@H](C)NC(=O)[C@@H](NC(=O)[C@H](CCCCN)NC(=O)[C@H](CC(=O)O)NC(=O)[C@H](CC(C)C)NC(=O)C(C)(C)NC(=O)[C@@H](NC(=O)[C@H](CO)NC(=O)[C@H](Cc1ccc(O)cc1)NC(=O)[C@H](CC(=O)O)NC(=O)[C@H](CO)NC(=O)[C@@H](NC(=O)[C@H](Cc1ccccc1)NC(=O)[C@@H](NC(=O)CNC(=O)[C@H](CCC(=O)O)NC(=O)C(C)(C)NC(=O)[C@@H](N)Cc1ccc(O)cc1)[C@@H](C)O)[C@@H](C)O)[C@@H](C)CC)[C@@H](C)CC)C(C)C)C(=O)N[C@@H](C)C(=O)NCC(=O)NCC(=O)N1CCC[C@H]1C(=O)N[C@@H](CO)C(=O)N[C@@H](CO)C(=O)NCC(=O)N[C@@H](C)C(=O)N1CCC[C@H]1C(=O)N1CCC[C@H]1C(=O)N1CCC[C@H]1C(=O)N[C@@H](CO)C(N)=O; system = human, plasma; setting = subcutaneous, 5 mg, week 8, steady state, geometric mean; quantity = CL/F; result = 0.48 mL/min
SMILES = CO[C@H]1C[C@@H]2CC[C@@H](C)[C@@](O)(O2)C(=O)C(=O)N2CCCC[C@H]2C(=O)O[C@H]([C@H](C)C[C@@H]2CC[C@@H](OCCO)[C@H](OC)C2)CC(=O)[C@H](C)/C=C(\C)[C@@H](O)[C@@H](OC)C(=O)[C@H](C)C[C@H](C)/C=C/C=C/C=C/1C; assay = LC-MS/MS; system = human patients, whole blood; setting = oral, 5 mg once daily (MTD), with: paclitaxel; quantity = Cmin; result = 7.28 ng/mL
SMILES = CC(=O)CO; system = propylene glycol; setting = dermal, toxicity-qualified; quantity = specification limit; result = 90 µg/mL
SMILES = ClC=C(Cl)Cl; system = human, exhaled alveolar breath; setting = inhalation, 100 ppmv for 4 h; quantity = A2 coefficient; result = 2.86 µg/L and 4.68 µg/L
SMILES = C[C@H]1CNCCc2ccc(Cl)cc21; system = male Sprague-Dawley rat, plasma; setting = subcutaneous, 1 mg/kg, single dose; quantity = AUC(0-t); result = 58.5 ng·h/mL

Some of these lines once more:
SMILES = CC(=O)C[C@@H](c1ccccc1)c1c(O)c2ccc(O)cc2oc1=O; assay = substrate, measured: 7-hydroxywarfarin 7-glucuronide; system = pooled human liver microsomes; quantity = Km; result = 929 µM
SMILES = CSCC[C@H](NC(C)=O)C(=O)N[C@H]1CSSC[C@@H](C(=O)NCC(=O)N[C@@H](CO)C(=O)NCC(=O)N[C@@H](CO)C(=O)N[C@@H](CC(=O)O)C(=O)N[C@@H](Cc2ccc(O)cc2)C(=O)N[C@@H](CCCCN)C(=O)N[C@@H](CC(=O)O)C(=O)N[C@@H](CC(=O)O)C(=O)N[C@@H](CC(=O)O)C(=O)N[C@@H](CC(=O)O)C(=O)N[C@@H](CCCCN)C(N)=O)NC(=O)[C@H](Cc2ccccc2)NC(=O)[C@@H]2CCCN2C(=O)[C@H](Cc2c[nH]c3ccccc23)NC(=O)[C@H](CC(C)C)NC(=O)[C@H](CCSC)NC(=O)[C@H](Cc2c[nH]cn2)NC(=O)[C@H](Cc2ccccc2)NC(=O)[C@H](Cc2c[nH]cn2)NC(=O)[C@H]([C@@H](C)O)NC(=O)[C@H](Cc2ccccc2)NC1=O; system = pooled human plasma; setting = 1 µM, pH 7.4, 37 °C, 80% plasma; quantity = t1/2; result = 3.5 h
